Assay results collected from several papers.
Every numbered part comes from another study and shows a few of its results, in no order. Substitutions count along the parent as printed.

Block 1
Target: CCND3, cyclin fold, Cln2 fusion (human)
Technique: yeast growth competition, sequencing
Sample: yeast
Notes: weak parent motif
Reference: not given
Reading: higher = stronger binding
Starting sequence: MASTL docking peptide (human); PMIAKNLMCELDE; partner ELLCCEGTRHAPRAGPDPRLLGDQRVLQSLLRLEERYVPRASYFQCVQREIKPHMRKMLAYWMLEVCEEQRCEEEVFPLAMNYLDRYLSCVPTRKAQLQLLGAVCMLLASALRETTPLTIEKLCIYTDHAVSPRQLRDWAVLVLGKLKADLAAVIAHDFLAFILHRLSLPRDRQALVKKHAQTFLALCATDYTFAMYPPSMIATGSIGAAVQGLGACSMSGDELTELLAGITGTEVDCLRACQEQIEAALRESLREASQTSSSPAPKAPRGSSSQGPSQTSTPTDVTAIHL
Substitution	normalised enrichment score
PEIAKNLMCELDE [M2E]	0.0689
PMIAKNLMSELDE [C9S]	-0.202
PMIAKNLMGELDE [C9G]	-0.0658
PMSAKNLMCELDE [I3S]	0.0563
PMIAKNQMCELDE [L7Q]	0.0697
PMIAKNFMCELDE [L7F]	-0.039
PMITKNLMCELDE [A4T]	0.0625
PMIAKNLMCEADE [L11A]	0.0128
PMIAKNLMCTLDE [E10T]	-0.149
PMRAKNLMCELDE [I3R]	0.0298
PMIEKNLMCELDE [A4E]	-0.228
PMIAVNLMCELDE [K5V]	0.105
PMIAKNLMCELPE [D12P]	-0.142
PMIGKNLMCELDE [A4G]	-0.0453
PMIAKNLSCELDE [M8S]	-0.0436
PMIAKNLMCEQDE [L11Q]	-0.228
PMIAKNLMCEDDE [L11D]	-0.326
PMIAINLMCELDE [K5I]	0.0582
PMIAKNLMCELQE [D12Q]	-0.0239
PMIFKNLMCELDE [A4F]	0.0713
PMIAKNLMCEYDE [L11Y]	-0.102
PMIAKNLMCELSE [D12S]	-0.0351
PMIAKNLNCELDE [M8N]	-0.125
PMIAKNYMCELDE [L7Y]	0.0843
PMIAKNLMIELDE [C9I]	-0.242

Block 2
Target: FOSB, bZIP domain (human)
Technique: DHFR protein complementation
Sample: yeast
Notes: single substitutions, most at no-binding floor
Reference: wild-type JUN-FOS pair
Reading: higher = stronger binding
Starting sequence: JUN, bZIP domain (human); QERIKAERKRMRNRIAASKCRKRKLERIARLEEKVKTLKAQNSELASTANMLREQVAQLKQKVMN
Substitution	binding fitness
V56S	-1.39 natural log
L45E	-1.49 natural log
L38D	-1.35 natural log
L52W	-1.26 natural log
L45D	-1.27 natural log
L59W	-1.22 natural log
V56W	-1.31 natural log
A40P	-1.48 natural log

Block 3
Target: RNA binding protein fox-1 homolog 2, RRM domain, GST-SBP tag (RBFOX2, Homo sapiens, UniProt O43251-10, residues 100-194)
Technique: RNA Bind-n-Seq
Form: RNA
Sample: in vitro
Concentration: 365 nM
Notes: natural RNA segment, single round, ends assumed
Reference: no-protein control
Reading: higher = stronger binding
Construct (chain): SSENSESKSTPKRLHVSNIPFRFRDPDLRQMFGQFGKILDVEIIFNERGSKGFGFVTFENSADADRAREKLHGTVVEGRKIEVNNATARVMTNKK
Strand	RBNS enrichment (R)
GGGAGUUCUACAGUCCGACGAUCUCUGGCUUAGAUUGAAAAAUGGGCUUCCUAAUGGGUUAAAUCCUUUAAAACAAGGAGUUGUGGGGGAAGGGUGUCGUGCACUCCUAGAGAAAGGUACACAGUUGCCCGGUUGGAAUUCUCGGGUGCCAA	1.05
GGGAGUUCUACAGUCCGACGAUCUCUGCAGCCCACAUGAUCCUUGAGAGUUUUGGGUUUCGGUAACACCUCAGGGCCACUGCAUUGUUUUGCCAAAAUCUUACUCCAGAUUAAGUACAGAACUUGGUUUCUAAUGGAAUUCUCGGGUGCCAA	0.448
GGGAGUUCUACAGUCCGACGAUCAUUGUCCUGGAACCUCCAGGAUCCUUGACUGAGGGCGUUGGGAUGGCUUGUAGGAUUUUUAAGAGAGUGUGUCUACAGACAAGCAUUUUCUCUGUAGAGCAGCCACACGUUGGAAUUCUCGGGUGCCAA	0.309
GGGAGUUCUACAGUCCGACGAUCAUCUGGUAUAGAGACCUGCAUUUUUACCUAACCUUCUAGACUCCUGAAAGGGAGUUAAAUGAAUUCACAUGAAGGGGUCGCCUGAGUCCCGCAGUUCCCCGCUCUGUACUUGGAAUUCUCGGGUGCCAA	0.443
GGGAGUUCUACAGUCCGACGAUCCCUAUCUCGCCCAGUGAAAUCACAGGAAGUUUAACGUAUCUCAGAGGCCUUUGAGUUCCCACUCAAUACCUCUCCCUCUUUACAGAAGAGAGGGGUGGGGGGAGCCUUGGUGGAAUUCUCGGGUGCCAA	0.292
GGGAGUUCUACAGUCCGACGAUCCUCUAUUACGCAAUGUUCCGAAGUUAAAACCCACCAUCCUGCCGCUCAAGAAGACUGACCGGUACGGGACACUCGAGGCUUUGAAUGGGACACCCUAUUCUGCCUUUUUUUGGAAUUCUCGGGUGCCAA	0.283
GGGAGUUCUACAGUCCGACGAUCAGAAUGCCUGCCAUGGGCACUUCUCUGUACCCGGGCUCCAGUGCCAGGCCAGCCUCUCACUCCCAAGCCAUAGUCCUACUCCCAUGGGAAAGGAGGUCUUCUCUCUGCCCUGGAAUUCUCGGGUGCCAA	0.361
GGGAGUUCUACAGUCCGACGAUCUCAGGGUGUGAGUGAGCUCUGCUACUCCCCACCCAGUGCCUGAGGAGCCUGUCAGGUUUUGAGAGCUUGAUUUUAUGGUGGGUUUUGGAUUUAGUUUCCUUUUUCCUUUUUGGAAUUCUCGGGUGCCAA	0.514
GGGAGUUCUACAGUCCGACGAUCAGGUCUCCCACAGUGACAGCUCCUGGGUCCUUGUUCAGGAAAAGCCUGUGUGUUACCACUGCCUCAUCAGGAGGCUGCCAUUGGCAGUGGCUGCUGCUGGCCUCCCUGCAUGGAAUUCUCGGGUGCCAA	1.93
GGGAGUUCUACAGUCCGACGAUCCACCCCUGCCCAUUUUCUGUCUUUAAUUAACCAAGGUGUUAGGUGUGACUGUCACAACUGUUAUGUUUUCCAGUAAACUAGAAGUACGAUAUUUGAUAAUUAUAUUUGUAUGGAAUUCUCGGGUGCCAA	0.84
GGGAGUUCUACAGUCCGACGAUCGAUGUUAGGUAAAACAUGUAAUUGUUUCUCUGGCAAAUUUGUAUCAGUAAUUUGAAAAUGAGAUAUUAGGAAAAACCAAUUCUUCUUAAAUUUAGUUCAUCUUUCUUUAAUGGAAUUCUCGGGUGCCAA	0.439
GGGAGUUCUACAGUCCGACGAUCUGCUAGGUUAUGGAAGAUGUAAAAUAUUCAACUUUUUCCUCCUUUUUUUGGACUUUGUAUUUUACUGCAUGUUUUCUUCAUUUUUAAUCAAUAAAGAGUAAAUUGUCCUUUGGAAUUCUCGGGUGCCAA	50.7

Block 4
Target: ABI1, truncated, D143A, DHFR fusion (Arabidopsis thaliana)
Technique: DHFR PCA, deep sequencing
Sample: yeast
Notes: methotrexate growth selection, single substitutions
Together with: (+)-ABA 17 µM
Reference: wild-type fitted maximum
Reading: higher = stronger binding
Starting sequence: PYL1, truncated, DHFR fusion (Arabidopsis thaliana); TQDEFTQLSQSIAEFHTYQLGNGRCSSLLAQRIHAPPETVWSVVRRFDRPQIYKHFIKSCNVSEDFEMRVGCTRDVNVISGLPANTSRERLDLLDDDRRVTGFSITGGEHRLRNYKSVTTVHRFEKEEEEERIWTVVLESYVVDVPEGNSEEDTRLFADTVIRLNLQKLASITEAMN; partner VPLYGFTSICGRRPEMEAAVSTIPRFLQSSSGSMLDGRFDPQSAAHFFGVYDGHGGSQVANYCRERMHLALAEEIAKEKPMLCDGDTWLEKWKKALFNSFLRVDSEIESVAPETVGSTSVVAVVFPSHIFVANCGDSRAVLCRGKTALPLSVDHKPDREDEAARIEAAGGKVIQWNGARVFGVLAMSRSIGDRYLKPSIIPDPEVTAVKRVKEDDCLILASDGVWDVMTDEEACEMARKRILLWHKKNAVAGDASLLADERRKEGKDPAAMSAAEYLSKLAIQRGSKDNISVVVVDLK
Substitution	relative binding score
A13K	88.3%
R46Y	3.25%
D144R	3.82%
L28G	6.11%
R99A	38.9%
F5M	87.7%
V100M	70.7%
G81M	-4.24%
V62H	18.3%
V143S	15.9%
T73P	5.59%
G108F	-4.6%
L156Y	74.7%
E151Y	69.9%
E130S	94.1%

A few entries again (block 2):
Substitution	binding fitness
L52W	-1.26 natural log
A40P	-1.48 natural log
L38D	-1.35 natural log
V56S	-1.39 natural log
